Results from different studies.
Each line is one published result; not all experiments were run side by side. ± marks the error that the study gave.
rep main protease: Replicase polyprotein 1ab, main protease (rep, Severe acute respiratory syndrome coronavirus 2, UniProt P0DTD1)
rep nsp13 helicase: Replicase polyprotein 1ab, nsp13 helicase (rep, Severe acute respiratory syndrome coronavirus 2, UniProt P0DTD1)
rep nsp14 N7-methyltransferase: Replicase polyprotein 1ab, nsp14 N7-methyltransferase (rep, Severe acute respiratory syndrome coronavirus 2, UniProt P0DTD1)
rep papain-like protease: Replicase polyprotein 1ab, papain-like protease (rep, Severe acute respiratory syndrome coronavirus 2, UniProt P0DTD1)
rep nsp14 methyltransferase: Replicase polyprotein 1ab, nsp14 methyltransferase (rep, Severe acute respiratory syndrome coronavirus 2, UniProt P0DTD1)

For `O=C(Oc1cncc(Cl)c1)c1cc2cc(Cl)ccc2[nH]1`, the kinact/Ki was 29100 M⁻¹ s⁻¹ (rep main protease; inhibitor, biochemical).
The inhibition of `CCO.C[C@H]1c2cccc(O)c2C(O)=C2C(=O)[C@]3(O)C(O)=C(C(N)=O)C(=O)[C@@H](N(C)C)[C@@H]3[C@@H](O)[C@@H]21.C[C@H]1c2cccc(O)c2C(O)=C2C(=O)[C@]3(O)C(O)=C(C(N)=O)C(=O)[C@@H](N(C)C)[C@@H]3[C@@H](O)[C@@H]21.Cl.Cl.O` is reported as 3.36% (rep main protease; reporter gene (Gaussia luciferase), inhibitor; 20 µM).
`Cn1cnc(Cn2c(=O)[nH]/c(=N\c3cc4cn(C)nc4cc3Cl)n(Cc3cc(F)c(F)cc3F)c2=O)n1`: “dry mouth TEAE, Severe severity” 0% (human, all renal function groups; oral, 375 mg).
For `CC[C@H](C)[C@H](NC(=O)[C@H](CC(C)C)NC(=O)[C@H](Cc1c[nH]c2ccccc12)NC(=O)[C@H](CCC(N)=O)NC(=O)[C@@H](NC(=O)[C@H](Cc1ccccc1)NC(=O)[C@H](C)NC(=O)[C@H](CCCCNC(=O)COCCOCCNC(=O)COCCOCCNC(=O)CC[C@H](NC(=O)CCCCCCCCCCCCCCCCCCC(=O)O)C(=O)O)NC(=O)[C@H](CCC(N)=O)NC(=O)[C@H](C)NC(=O)[C@@H](NC(=O)[C@H](CCCCN)NC(=O)[C@H](CC(=O)O)NC(=O)[C@H](CC(C)C)NC(=O)C(C)(C)NC(=O)[C@@H](NC(=O)[C@H](CO)NC(=O)[C@H](Cc1ccc(O)cc1)NC(=O)[C@H](CC(=O)O)NC(=O)[C@H](CO)NC(=O)[C@@H](NC(=O)[C@H](Cc1ccccc1)NC(=O)[C@@H](NC(=O)CNC(=O)[C@H](CCC(=O)O)NC(=O)C(C)(C)NC(=O)[C@@H](N)Cc1ccc(O)cc1)[C@@H](C)O)[C@@H](C)O)[C@@H](C)CC)[C@@H](C)CC)C(C)C)C(=O)N[C@@H](C)C(=O)NCC(=O)NCC(=O)N1CCC[C@H]1C(=O)N[C@@H](CO)C(=O)N[C@@H](CO)C(=O)NCC(=O)N[C@@H](C)C(=O)N1CCC[C@H]1C(=O)N1CCC[C@H]1C(=O)N1CCC[C@H]1C(=O)N[C@@H](CO)C(N)=O`, the severe hypoglycaemia was 0% (healthy human; 0.5 mg, single ascending dose).
Under activity class, `Cc1cccc(CNC(=O)c2cccc(-c3ccc(S(=O)(=O)CC(=O)O)cc3)c2)c1C` is recorded as “inactive” (rep nsp13 helicase; NSP13 ATPase activity, Kinase-Glo luminescence; SARS-CoV-2; concentration not given).
`Cc1nc(C(=O)N2CC[C@@H]([C@@H]3CCCN3C(=O)c3cc(C)c4n[nH]nc4c3)C2)cc(=O)[nH]1` has an inhibition of 12.9% (rep main protease; enzyme activity, inhibitor; 5 µM, run 1).
For `C=C1[C@@H](C)[C@H]2[C@H](Cc3ccccc3)NC(=O)[C@]23[C@H](OC(C)=O)/C=C/[C@](C)(O)C[C@@H](C)C/C=C/[C@H]3[C@@H]1O`, the inhibition was 2.48% (rep main protease; reporter gene (Gaussia luciferase), inhibitor; 20 µM).
`ivermectin`: helicase inhibition “no inhibition” (rep nsp13 helicase; DNA unwinding, inhibitor, MBHA; concentration not given).
With `COc1ccc(S(=O)(=O)NCc2cn(C[C@H]3O[C@@H](n4cnc5c(N)ncnc54)[C@H](O)[C@@H]3O)nn2)cc1` the remaining binding was over 50% (rep nsp14 N7-methyltransferase; N7-methyltransferase activity, inhibitor, radioactive filter binding; 50 µM, 0.5 h, 30 °C, with: GpppAC4 RNA, SAM).
`CC[C@H](NC(=O)CCC(=O)O)C(=O)N[C@H](C(=O)N[C@@H](CC(C)C)C(=O)N[C@@H](CCC(N)=O)C(=O)Nc1ccc2c(C)cc(=O)oc2c1)C(C)(C)C` — result for “peak substrate concentration”: 3.3 mmol/L (rep main protease; substrate).
With `CC(=O)N1CCN(C(=S)c2ccc(Cl)cc2)CC1` the Hill slope was 0.88 ± 0.24 (rep nsp14 N7-methyltransferase; N7-methyltransferase activity, inhibitor, Py-FLINT).
`Cc1ccccc1C1CC(=O)c2c(C)nc(N)nc2C1` (centres unmarked) — result for “log fold enrichment”: -0.0483 (rep nsp13 helicase; binding, affinity selection mass spectrometry; relative to: other proteins in batch).
`Oc1c(Cl)cc(Cl)c(Cl)c1Cc1c(O)c(Cl)cc(Cl)c1Cl` has a Hill slope of 1.82 ± 0.1 (rep nsp14 N7-methyltransferase; N7-methyltransferase activity, inhibitor, Py-FLINT).
`O=C(NC[C@H](NC(=O)c1cncc2ccccc12)c1ccc2ccccc2c1)c1cccnc1` gave an inhibition of 12.3% (rep main protease; enzyme activity, inhibitor; 5 µM, run 2).
The koff of `CCC(C(=O)Nc1cc(NC2CCOC2)ccc1C)n1cc(Br)cc2nc(SCc3ccc(F)cc3)nc1-2` (centres unmarked) is reported as 0.091 s⁻¹ (rep papain-like protease; binding).
With `Cc1[nH]cnc1C(=O)NC[C@H](NC(=O)c1c(Cl)ccnc1F)c1ccc2ccccc2c1` the inhibition was 13.3% (rep main protease; enzyme activity, inhibitor; 5 µM, run 1).
The Hill slope of `O=C(Nc1ccccc1C(=O)NC1CCCCNC1=O)c1cc2ccccc2s1` (centres unmarked) is reported as 1.45 ± 0.68 (rep nsp14 N7-methyltransferase; N7-methyltransferase activity, inhibitor, Py-FLINT).
`Cn1cc(C(=O)N2Cc3ccccc3C[C@H]2CNC(=O)c2cccc3[nH]ncc23)nn1` has an inhibition of 13.6% (rep main protease; enzyme activity, inhibitor; 5 µM, run 2).
The kon of `C=CS(=O)(=O)N(c1ccc(C(C)(C)C)cc1)C(C(=O)NCCc1cccc(Cl)c1)c1cccnc1` (centres unmarked) is reported as 6100 ± 900 M⁻¹ s⁻¹ (rep main protease; inhibitor, ITC, irreversible model; 16.7 µM).
With `CN(C(=O)[C@H](Cc1ccccc1)NC(=O)[C@@H](NC(=O)OCc1ccccc1)C(C)(C)C)N(C#N)CCC(N)=O` the kinact/Ki was 36000 M⁻¹ s⁻¹ (rep main protease; inhibitor, biochemical).
With `O=C(Cc1cccc(OC(F)(F)F)c1)Nc1ccc(CCCCc2nnc(NC(=O)Cc3ccccn3)s2)nn1` the inhibition was -0.474% (rep main protease; reporter gene (mKate2), inhibitor; 20 µM).
`C[C@H](NC(=O)c1[nH]nc2nc[nH]c(=O)c12)[C@@H]1CCN(C(=O)c2cc(-c3ccccc3)ccn2)C1` has an inhibition of 18.7% (rep main protease; enzyme activity, inhibitor; 5 µM, run 1).
`CC(C)(C)C(=O)Oc1ccc(S(=O)(=O)Nc2ccccc2C(=O)NCC(=O)O)cc1` gave an inhibition of 0.354% (rep main protease; reporter gene (Gaussia luciferase), inhibitor; 20 µM).
With `Nc1ncnc2c([C@@H]3N[C@H](CO)[C@@H](O)[C@H]3O)c[nH]c12` the inhibition was 92% (Marburg virus; viral replication; HeLa, Musoke; 25 µM).
`CC(Cc1ccc(O)c(O)c1)C(C)Cc1ccc(O)c(O)c1` (centres unmarked) gave a Hill slope of 1.1 ± 0.07 (rep nsp14 N7-methyltransferase; N7-methyltransferase activity, inhibitor, Py-FLINT).
The inhibition of `C#CC1(C(=O)NC[C@H](NC(=O)c2cncc3[nH]ccc23)c2ccc3ccccc3c2)CC1` is reported as 14.8% (rep main protease; enzyme activity, inhibitor; 5 µM, mean of runs).
The Hill slope of `[H]/N=C(\N/C(=N/[H])NCCCCCCNC(=N)NC(=N)Nc1ccc(Cl)cc1)Nc1ccc(Cl)cc1` is reported as 3.37 ± 0.12 (rep nsp14 N7-methyltransferase; N7-methyltransferase activity, inhibitor, Py-FLINT).
`N#C[C@@]1(n2ccc(N)nc2=O)O[C@H](COP(=O)(O)OP(=O)(O)OP(=O)(O)O)[C@@H](O)[C@H]1O` — result for “incorporation per template position”: 270 (Replicase polyprotein 1ab, nsp12 with nsp7/nsp8 (rep, Severe acute respiratory syndrome coronavirus 2, UniProt P0DTD1); guanosine analog incorporation; 10 µM, with: CTP 275 µM).
`CC1CNc2c(cccc2S(=O)(=O)N[C@@H](CCCNC(=N)N)C(=O)N2CC[C@@H](C)C[C@@H]2C(=O)O)C1` (some centres unmarked) gave an inhibition of -0.543% (rep main protease; reporter gene (mKate2), inhibitor; 20 µM).
`CCC(C(=O)Nc1cc(NC2COC2)ccc1C)n1cccc2nc(SCc3ccc(F)cc3)nc1-2` (centres unmarked) has a koff of 0.155 ± 0.014 s⁻¹ (rep papain-like protease; binding).
`N.N#Cc1ccc(N2CCC(c3ccc(C(=O)O)cc3)=N2)cc1Cl` — result for “lipophilic ligand efficiency”: 1.3 (rep nsp14 methyltransferase).
`O=C1CC[C@@H](CCC(=O)N2CCCC[C@@H](C3CN(C(=O)c4cnc5n[nH]nc5c4)C3)C2)CN1` has an inhibition of 14% (rep main protease; enzyme activity, inhibitor; 5 µM, mean of runs).
With `CC1(C)C=Cc2cc3ccc(=O)oc3cc2O1` the inhibition was 1.92% (rep main protease; reporter gene (Gaussia luciferase), inhibitor; 20 µM).
`Nc1ccccc1-c1noc(-c2ccncc2)n1` gave a ligand efficiency of 0.391 (rep papain-like protease).
`CC(Oc1ccccc1)C(=O)NCc1ccccn1` (centres unmarked) — result for “log fold enrichment”: -0.109 (rep nsp13 helicase; binding, affinity selection mass spectrometry; relative to: other proteins in batch).
`CCCCCCCC/C=C\CCCCCCCC(=O)NCCc1ccc(O)c(O)c1` gave a Hill slope of 1.23 ± 0.1 (rep nsp14 N7-methyltransferase; N7-methyltransferase activity, inhibitor, Py-FLINT).
`CC(=O)Nc1ccc(-c2cnc(/N=C\c3cc4ccccc4nc3Cl)s2)cc1`: “melting temperature decrease” over 10 °C (rep main protease; thermal shift; 100 µM, with: Mpro 15 µM).
`CC(C)=CCc1c(O)cc(O)c2c(=O)c(-c3ccc(O)cc3)coc12` has an inhibition of 0.198% (rep main protease; reporter gene (mKate2), inhibitor; 20 µM).
Under “lipophilic ligand efficiency”, `CC1CC(c2cccc(C(=O)O)c2)=NN1c1ccc(C#N)c(Cl)c1.N` (centres unmarked) is recorded as 2.3 (rep nsp14 methyltransferase).
The inhibition of `Cc1nn(-c2ccc(Cl)cc2)c2c1C(c1ccc(Cl)cc1Cl)C(C#N)=C(N)O2` (centres unmarked) is reported as 57.2% (rep main protease; 3CL protease activity; 0.1 µg/mL, 90 min, enzyme 100 ng/mL).
The Hill slope of `N#CC(C(N)=O)=C1Oc2c(cc(O)cc2-c2ccc(Cl)c(Cl)c2)S1` is reported as 1.51 ± 0.22 (rep nsp14 N7-methyltransferase; N7-methyltransferase activity, inhibitor, Py-FLINT).
`Cc1cc(N[C@H]2C[C@H]3CC[C@@H]2N(C(=O)c2cnc4[nH]ccc4c2)C3)nc(-c2cccnc2)n1` gave an inhibition of 12.1% (rep main protease; enzyme activity, inhibitor; 5 µM, mean of runs).
The inhibition of `N=C(N)c1ccccc1` is reported as -0.151% (rep main protease; reporter gene (Gaussia luciferase), inhibitor; 20 µM).
The Hill slope of `CC(=O)[C@]1(O)Cc2c(O)c3c(c(O)c2[C@@H](O[C@H]2C[C@H](N)[C@H](O)[C@H](C)O2)C1)C(=O)c1ccccc1C3=O` is reported as 1.59 ± 0.11 (rep nsp14 N7-methyltransferase; N7-methyltransferase activity, inhibitor, Py-FLINT).

For quick reference, copied from above:
The Hill slope of `[H]/N=C(\N/C(=N/[H])NCCCCCCNC(=N)NC(=N)Nc1ccc(Cl)cc1)Nc1ccc(Cl)cc1` is reported as 3.37 ± 0.12 (rep nsp14 N7-methyltransferase; N7-methyltransferase activity, inhibitor, Py-FLINT).
With `Cc1[nH]cnc1C(=O)NC[C@H](NC(=O)c1c(Cl)ccnc1F)c1ccc2ccccc2c1` the inhibition was 13.3% (rep main protease; enzyme activity, inhibitor; 5 µM, run 1).
